Assay results pooled from the literature.
Protocols differ between the studies behind these lines. ± marks the error that the study gave. Values after ≈ are worked out from the molar mass of the structure shown.

SMILES	organism	assay	system	setting	how to read	measurement	value
Oc1ccccc1/C=N/NC(=S)Nc1cc(C(F)(F)F)cc(C(F)(F)F)c1	Candidozyma auris	broth microdilution	922	–	baseline: hit compound	MIC fold improvement	256 fold
CC[C@H](C)[C@H](NC(=O)[C@H](CCCCN)NC(=O)[C@H](CO)NC(=O)[C@H](CC(C)C)NC(=O)[C@H](CCC(=O)O)NC(=O)[C@@H](NC(=O)[C@H](CCC(=O)O)NC(=O)[C@H](CC(N)=O)NC(=O)[C@H](CC(C)C)NC(=O)[C@@H](N)CCCCN)C(C)C)C(=O)N[C@@H](CO)C(=O)NCC(=O)NCC(N)=O	Clostridioides difficile	–	Caco-2	concentration not given	–	reduction of proinflammatory cytokines	< 20%
CN[C@H](C)C(=O)N[C@H](C(=O)N1CC[C@@H]2Oc3ccc(OC)c(c3)/C=C\NC(=O)[C@H](Cc3ccccc3)NC(=O)[C@H]21)C(C)C	porcine epidemic diarrhea virus	–	Vero cells	–	baseline: CC50 over EC50	selectivity index	26.8 ± 0.54
Cc1ccc(/C=N/N=C/c2ccc([N+](=O)[O-])s2)cc1	Trypanosoma evansi	parasite growth, CellTiter-Glo	Tansui bloodstream form	72 h	–	IC50	5.17 ± 1.58 µM
c1ccc(-c2nc(-c3ccc4ccccc4c3)c[nH]2)cc1	Schistosoma mansoni	egg laying	worm couples	–	–	lowest concentration reducing egg number	≥ 5 µM
O=c1c(O)cccc(S(=O)(=O)Cc2ccccc2)c1O	Cryptococcus neoformans	microbial growth, broth dilution	–	13 h	–	MIC80	50 µM (≈ 14.6 µg/mL)
C#CCN1CCC23C(=C(C(=O)OC)CC(C(=O)OC)C12)Nc1ccccc13 (stereo not drawn)	Hepatitis B virus	viral replication, inhibitor, qPCR	HePAD38	5 µM	–	inhibition	~30%
O=[N+]([O-])c1ccc(/C=N/N=C/c2ccccc2)o1	Trypanosoma brucei gambiense	parasite growth, CellTiter-Glo	IL1922 bloodstream form	72 h	–	IC50	4 ± 1.11 µM
Cc1ncc([N+](=O)[O-])n1CCOCc1nnc(SCC(=O)c2ccc(O)cc2)o1	viridans streptococci	–	DMSO	60 µg/mL, 24 h, 37 °C	–	inhibition zone diameter	15 to 20 mm
Cc1ccc(/C=N/N=C/c2ccc([N+](=O)[O-])o2)cc1	Trypanosoma brucei gambiense	parasite growth, CellTiter-Glo	IL1922 bloodstream form	72 h	–	IC50	3.68 ± 1.43 µM
CC(C)(C)N/C=C/c1ccccc1	Schistosoma mansoni	–	somules and adults	up to 40 µM, 24 h	–	activity	inactive
Fc1ccc2c(c1)c1nc3ccc(Br)cc3c-1cn2Cc1cn(-c2ccccc2I)nn1	Giardia duodenalis	UHPLC-Q-TOF-MS, refers to: PC(15:0/0:0)	trophozoites	IC50, 0.1525 h	baseline: 0.25% DMSO	fold change	3.09
CC(C)(C)c1ccc(CN2C(=O)S/C(=C\c3ccc(O)c([N+](=O)[O-])c3)C2=O)cc1	Salmonella Typhimurium	Western blot	MCF7	5 µM, 10 h post infection	–	ERK phosphorylation	no effect
CC(C)C[C@@H]1NC(=O)[C@H](CCCCN)NC(=O)[C@H](C(C)C)NC(=O)[C@@H]2CCCN2C(=O)[C@@H](Cc2ccc(O)cc2)NC(=O)[C@H](CC(C)C)NC(=O)[C@H](CCCCN)NC(=O)[C@H](C(C)C)NC(=O)[C@H](CCCCN)NC(=O)[C@@H]2CCCN2C(=O)[C@@H](Cc2ccc(O)cc2)NC1=O	Gram-positive bacteria	–	–	24 h, 7 strains	–	MIC geometric mean	3.3 µg/mL (≈ 2.48 µM)
COc1ccc(S(=O)(=O)NCc2c[nH]nc2-c2cccs2)cc1	Plasmodium vivax	reinvasion	2, human, human red blood cells	1× EC50, 20 h	–	parasitemia	0.5 ± 1.1%
O=C(Nc1ccccc1Nc1ccccc1)c1nccnc1Cl	Botrytis cinerea	microbial growth	–	50 µg/mL	–	inhibition	36.6%
CC[C@H](C)[C@H](NC(=O)[C@H](CCCN)NC(=O)[C@H](CC(N)=O)NC(=O)[C@H](Cc1c[nH]c2ccccc12)NC(=O)[C@H](Cc1ccccc1)NC(=O)[C@H](CCCN)NC(=O)[C@H](CCCCNC(=N)N)NC(=O)[C@H](CC(C)C)NC(=O)[C@H](Cc1c[nH]c2ccccc12)NC(=O)[C@H](CCCN)NC(=O)[C@H](CCCCNC(=N)N)NC(=O)[C@H](CC(C)C)NC(=O)CNC(C)=O)C(=O)N[C@@H](CCCN)C(=O)N[C@@H](CCCCNC(=N)N)C(N)=O	Gram-positive bacteria	–	–	–	–	geometric mean MIC	3.13 µM
CC1(C)S[C@@H]2[C@H](NC(=O)[C@H](NC(=O)C3=C(O)C(c4ccccc4F)NC3=O)c3ccccc3)C(=O)N2[C@H]1C(=O)O (stereo partly drawn)	Proteus mirabilis	microbial growth, broth dilution	ATCC25933	–	–	MIC	3.1 µg/mL (≈ 5.45 µM)
CC1(C)CC[C@]2(CO)CC[C@]3(C)C(=CC[C@@H]4[C@@]5(C)CCCNC(C)(C)[C@@H]5CC[C@]43C)[C@@H]2C1	Human alphaherpesvirus 1	cytopathic effect	HFF, E-377	–	–	EC90	> 1.2 µM
CO[C@H]1/C=C/O[C@@]2(C)Oc3c(C)c(O)c4c(c3C2=O)C2=NC3(CCN(CC(C)C)CC3)NC2=C(NC(=O)/C(C)=C\C=C\[C@H](C)[C@H](O)[C@@H](C)[C@@H](O)[C@@H](C)[C@H](OC(=O)c2cccc(F)c2)[C@@H]1C)C4=O	Mycobacteroides abscessus subsp. abscessus	–	K21, NOD SCID mice	oral, 10 mg/kg once daily, 10 days	baseline: vehicle	lung bacterial load reduction	10 fold

SMILES	organism	assay	system	setting	how to read	measurement	value
O=[N+]([O-])c1ccc(/C=N/N=C/c2ccc(Cl)cc2)o1	Trypanosoma evansi	parasite growth, CellTiter-Glo	Tansui bloodstream form	72 h	–	IC50	1.78 ± 0.46 µM
CC(=O)N[C@H](CCCNC(=N)N)C(=O)N[C@H](CCCNC(=N)N)C(=O)N[C@H](CCCNC(=N)N)C(=O)N[C@H](CCCNC(=N)N)C(=O)N[C@H](CCCNC(=N)N)C(=O)N[C@H](CCCNC(=N)N)C(=O)N[C@H](CCCNC(=N)N)C(=O)N[C@H](CCCNC(=N)N)C(=O)N[C@H](CCCNC(=N)N)C(N)=O	HIV-1	cell-cell fusion, luciferase	89.6 Env dual-tropic	concentration not given	–	inhibition	no effect
O=[N+]([O-])c1ccc(/C=N/N=C/c2ccc(O)cc2)s1	Trypanosoma brucei gambiense	parasite growth, CellTiter-Glo	IL1922 bloodstream form	72 h	–	IC50	0.43 ± 0.14 µM
CSc1ccc(SC)c(O)c(=O)c1O	Hepatitis B virus	viral replication, inhibitor	HepDES19	–	–	EC50	8.6 µM
CCN(CC)CC#CCNc1ccnc2cc(Cl)ccc12	Plasmodium vivax	schizont maturation	field isolates	20% human serum	–	IC50	0.235 µM
CC[C@H](C)[C@H](NC(=O)[C@H](CC(C)C)NC(=O)[C@@H](N)CS)C(=O)N[C@@H](CCC(=O)O)C(=O)N[C@@H](Cc1ccc(O)cc1)C(=O)NCC(=O)NCC(=O)N[C@@H](C)C(=O)N[C@@H](CC(=O)O)C(=O)N[C@@H](Cc1ccc(O)cc1)C(=O)N[C@@H](CCCCN)C(=O)N[C@H](C(=O)N[C@H](C(=O)N[C@@H](CC(N)=O)C(=O)N[C@@H](CC(C)C)C(=O)N[C@@H](CCCCN)C(=O)O)[C@@H](C)CC)[C@@H](C)O	infectious bursal disease virus	ELISA, refers to: secreted IgM	DT40 cells, IBDV-infected, culture supernatant	50 to 100 nM, 12 h	baseline: IBDV-infected untreated	IgM level	increased
Brc1ccc(-c2c[nH]c(-c3ccccn3)n2)cc1	Schistosoma mansoni	–	adult male worms	25 µM	–	worm killing	25%
O=c1c(O)cccc(Sc2cccc3ccccc23)c1O	Cryptococcus neoformans	microbial growth, broth dilution	–	13 h	–	MIC80	21 µM (≈ 6.22 µg/mL)
CC(C)C[C@@H]1NC(=O)[C@H](CCCCN)NC(=O)[C@@H]2CCCN2C(=O)[C@@H](Cc2ccc(O)cc2)NC(=O)[C@H](CCCCN)NC(=O)[C@H](C(C)C)NC(=O)[C@H](CC(C)C)NC(=O)[C@H](CCCCN)NC(=O)[C@H](C(C)C)NC(=O)[C@@H]2CCCN2C(=O)[C@@H](Cc2ccc(O)cc2)NC(=O)[C@H](CC(C)C)NC(=O)[C@H](CCCCN)NC(=O)[C@H](C(C)C)NC(=O)[C@H](CCCCN)NC1=O	Gram-positive bacteria	–	–	24 h, 7 strains	–	MIC geometric mean	3 µg/mL (≈ 1.67 µM)
CS(=O)(=O)c1cccc(O)c(=O)c1O	Hepatitis B virus	viral replication, inhibitor	HepDES19	–	–	EC50	0.55 µM
CC(C)C[C@@H]1NC(=O)[C@H](CCCCN)NC(=O)[C@H](C(C)C)NC(=O)[C@@H]2CCCN2C(=O)[C@@H](Cc2ccc(O)cc2)NC(=O)[C@H](CC(C)C)NC(=O)[C@H](CCCCN)NC(=O)[C@H](C(C)C)NC(=O)[C@@H]2CCCN2C(=O)[C@@H](Cc2ccc(O)cc2)NC1=O	Gram-positive bacteria	–	–	24 h, 7 strains	–	MIC geometric mean	1.2 µg/mL (≈ 0.999 µM)
COC(=O)c1c(C)cc(O)c(=O)c(O)c1O	herpes simplex virus 1	viral replication	–	5 µM	–	inhibition	inhibited
O=c1c(O)c(SCc2ccccc2)ccc(SCc2ccccc2)c1O	Cryptococcus neoformans	microbial growth, broth dilution	–	13 h	–	MIC80	7 µM (≈ 2.68 µg/mL)
CC1C=CC=CC(C)C2C=CC3CC(C)(O)C(Cl)C(C)C3C2C(=O)C(Cl)(Cl)C(=O)C(C)C(=O)O1 (stereo not drawn)	Staphylococcus aureus	–	MSSA and MRSA clinical isolates	–	–	MIC90	0.1 µg/mL (≈ 0.188 µM)
O=c1c(O)cccc(Sc2ccccc2)c1O	Cryptococcus neoformans	microbial growth, broth dilution	–	13 h	–	MIC80	1.5 µM (≈ 0.369 µg/mL)
c1ccc(CN2CCOCCOCCN(CCCCCCCCCCCCN3CCOCCOCCN(CCCCCCCCCCCCN4CCOCCOCCN(Cc5ccccc5)CCOCCOCC4)CCOCCOCC3)CCOCCOCC2)cc1	Klebsiella pneumoniae	tetracycline MIC, checkerboard	ATCC BAA-2146	half MIC, added: tetracycline	baseline: MIC alone over combination	fold enhancement	8 fold
COc1ccc(C(=O)CSc2nnc(COCCn3c([N+](=O)[O-])cnc3C)o2)cc1F	viridans streptococci	–	DMSO	60 µg/mL, 24 h, 37 °C	–	inhibition zone diameter	≥ 20 mm
O=[N+]([O-])c1ccc(/C=N/N=C/c2ccc(Cl)cc2)s1	Trypanosoma evansi	parasite growth, CellTiter-Glo	Tansui bloodstream form	72 h	–	IC50	1.34 ± 0.02 µM
CC[C@H](C)[C@H](NC(=O)[C@H](CCCCNC(=N)N)NC(=O)[C@H](CC(N)=O)NC(=O)[C@H](CC(C)C)NC(=O)[C@H](Cc1ccccc1)NC(=O)[C@H](CCCCNC(=N)N)NC(=O)[C@H](CCCCNC(=N)N)NC(=O)[C@H](CC(C)C)NC(=O)[C@H](CC(C)C)NC(=O)[C@H](CCCCNC(=N)N)NC(=O)[C@H](CCCCNC(=N)N)NC(=O)[C@H](CC(C)C)NC(=O)CNC(C)=O)C(=O)N[C@@H](CCCCNC(=N)N)C(=O)N[C@@H](CCCCNC(=N)N)C(N)=O	Gram-positive bacteria	–	–	–	–	geometric mean MIC	3.13 µM

A few entries again:
SMILES	organism	assay	system	setting	how to read	measurement	value
Fc1ccc2c(c1)c1nc3ccc(Br)cc3c-1cn2Cc1cn(-c2ccccc2I)nn1	Giardia duodenalis	UHPLC-Q-TOF-MS, refers to: PC(15:0/0:0)	trophozoites	IC50, 0.1525 h	baseline: 0.25% DMSO	fold change	3.09
CC(C)(C)c1ccc(CN2C(=O)S/C(=C\c3ccc(O)c([N+](=O)[O-])c3)C2=O)cc1	Salmonella Typhimurium	Western blot	MCF7	5 µM, 10 h post infection	–	ERK phosphorylation	no effect
CC(C)C[C@@H]1NC(=O)[C@H](CCCCN)NC(=O)[C@H](C(C)C)NC(=O)[C@@H]2CCCN2C(=O)[C@@H](Cc2ccc(O)cc2)NC(=O)[C@H](CC(C)C)NC(=O)[C@H](CCCCN)NC(=O)[C@H](C(C)C)NC(=O)[C@H](CCCCN)NC(=O)[C@@H]2CCCN2C(=O)[C@@H](Cc2ccc(O)cc2)NC1=O	Gram-positive bacteria	–	–	24 h, 7 strains	–	MIC geometric mean	3.3 µg/mL (≈ 2.48 µM)
